Assay results pooled from the literature.
A part holds a random share of what one study measured.

Study 1
Target: RNA binding protein fox-1 homolog 2, RRM domain, GST-SBP tag (RBFOX2, Homo sapiens, UniProt O43251-10, residues 100-194)
Technique: RNA Bind-n-Seq
Molecule type: RNA
Matrix: in vitro
Tested at: 365 nM
Setting: natural RNA segment, single round, ends assumed
Baseline: no-protein control
Direction: higher = stronger binding
Shared flanks, not repeated: GGGAGUUCUACAGUCCGACGAUC … UGGAAUUCUCGGGUGCCAA
Target sequence (chain): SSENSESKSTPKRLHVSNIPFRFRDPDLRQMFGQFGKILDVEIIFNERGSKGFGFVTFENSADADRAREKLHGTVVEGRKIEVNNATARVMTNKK
Oligonucleotide | RBNS enrichment (R)
CUGCGCUAUGUGGAUAUUUCUGGAACCACCUGACAGACCUGUCUCCACUCAACUACCUCACCCACCUGCUCUGGCUCAAGGCUGAUGGCAAUCGGCUGCGAAGUGCCCAG | 0.61
UUCAGGCCCUAUGAGGGGGUGGGAAGGAAGGGUCUCUUCAGUUUUUUAGAUGAGCUGGGCUACUUUGUGCUCAGAGUCUACAUUCCAGAUUGAUUAGAGUCUUAGGACAU | 0.412
GGGAGCUCUGCUCUGAGCUUGCCACACUGCUGAGAGCACCCACUGUCCUGACCAGAGUCUCAGUGGUCCUGACCCCCAAUGUGGGCAGGGGCUGGGCAGGAGGGUGGGGU | 2.45
UUGAUCCAGAGUCCUUGUUUCCUUGACUUGCUCCACCAGCCCUGCACCAGCUUUCCAAAUGCACUCUGCUUGUGUUGAAAUUCUCCCAUUUUUAUUUGGGCAUAAAAGUU | 0.982
CUCAUAUCCAUUCCAUGAGAAGGUGAGGGAUACCUCCUUGGGGCUGUUUGUAUCAUGGACUGUCAUGCUCUAUGCCUGGUCCUGGGGUCUCUAGAGGAUACUCAUCUGGA | 0.522
UAAUGACAUUGUUGUUGAUAAAUCUUUUUGCCUAAAAACUAGAAUAAAAUUGCAGUUGUUUCAGUGAUGCCUAAGACUGGUAUAUUUCCACAUUUAUGUACUGAACAUUU | 0.37
UAUUUAUUUUAAAUGUUUACAUCUUCUUUAUGUUGUAUCAAGCCUGAAUAGAAACUGAUAGCAUUAAAAUACUCCGUUCCUCUCUCUCUUCUCGCUUCCUUUUUUUUUUU | 1
UCUAAUGCUUCAAGUGUUGCUCUUGGAAAGCUGAUGAUGUCUCUUGUAGAAGAUGGACUCUGAAAAACAUUCCAGGAAACCAUGGCAGCAUGGAGAGCCUCUUAGUGAUU | 2.3
GAUACCAAGACCUGUCUGUUGGAUCUGUUUUGUUGAGAUAAACUGAUGUCCUUACAUUUCAUUUGUACCUAAACCAUUUGCUAUCGUUUAGACUUUCCACCCCCCACCCC | 0.302
UGAUCCGGGCCACUAGAGAUUAGCUUCCAUUGCCUGAGGCAGAGGGAGGACACAGGUCUUCCUGGAGUCUCUCUGCUGCUUUCCCCAGCCUCCCAAGCAACACACUAUGG | 0.315
AGGCCUCUCCCUCACUGUCAGCACCAGCUGGUAAAGGUGACUGUGCAGAUGUGCAUUUUCCUUUUGGUAGAAAUGGUCCACAGCACUAACUGGUAAGGCUUAUUGUACAG | 0.398
CUCUAGAUAUUAGUUGAAUGUUGAGGCUUUAACUUUUUCGGUGUCUUUCUACAACUGUGUUCUGUGACUCAAUUGUAUCGUGUUAAUAUCAGUGCAGACUGUCUCCUCUA | 0.367

Study 2
Target: Ras GTPase-activating protein-binding protein 1, C-terminal RGG region (G3BP1, Homo sapiens, UniProt Q13283)
Sequence of UniProt Q13283 (whole entry, looked up): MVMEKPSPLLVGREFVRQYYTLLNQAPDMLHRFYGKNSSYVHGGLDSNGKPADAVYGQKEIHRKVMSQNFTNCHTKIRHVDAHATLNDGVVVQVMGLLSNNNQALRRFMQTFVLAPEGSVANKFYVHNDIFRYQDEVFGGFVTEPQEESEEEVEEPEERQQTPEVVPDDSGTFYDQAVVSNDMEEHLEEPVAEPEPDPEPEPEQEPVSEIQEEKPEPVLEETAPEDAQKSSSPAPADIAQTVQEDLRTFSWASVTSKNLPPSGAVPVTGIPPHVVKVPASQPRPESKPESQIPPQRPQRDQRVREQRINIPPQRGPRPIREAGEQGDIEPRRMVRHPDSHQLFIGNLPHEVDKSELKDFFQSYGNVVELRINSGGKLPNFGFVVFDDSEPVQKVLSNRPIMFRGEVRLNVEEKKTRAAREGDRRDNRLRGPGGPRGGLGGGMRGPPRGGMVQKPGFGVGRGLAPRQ
Technique: RNA Bind-n-Seq
Molecule type: RNA
Matrix: in vitro
Tested at: 1 µM
Setting: whole 134-nt RNA, ends assumed
Added: 150 mM KCl
Baseline: input library
Direction: higher = stronger binding
Shared flanks, not repeated: GGGAGUUCUACAGUCCGACGAUC … UGGAAUUCUCGGGUGUCAAGG
Oligonucleotide | log2 enrichment
UGGGAGGUGGAUUUUGUUUAUUUUUUUAGCUCAUUUCCAGGGGUGGGAAUUUUUUUUUAAUAUGUGUCAUGAAUAAACUUGUUUUUGAAA | 3.03
UCCUGUGCUACACAUCGUAUGUACCGAAUCGGGGAAAAAGGGGAAAGGGGAAAAAGGGGAAAGUAUUAUGUUACGCCGUUCGGAUCUGCA | 1.51
CACAGACAACACGCACCCACACAGACACAGAAAAAAGGGGUUGGGAUGGGGACAGGGUGCACAGCAGGGCGGGGUAGGACCCCAGCCCCU | -0.253
GUCCUGUGCUACACAUCGUAUGUACCGAAUCGGGGUUUGGGGUUUUUGGGGUUUGGGGAAAGUAUUAUGUUACGCCGUUCGGAUCUGCAC | 2.43
UUGCCACUCUAAAUUCAGAAGAGGAGAGCGACCCUCCAACCUACAAGGAUGCCUUCCCUCCACUUCCUGAGAAAGCUGCUUGCCUGGAAA | -0.167
CUCAAGUCCUGUGCUACACAUCGUAUGUACCGAAUCGGGGAAGGAAGGGAAGGAAAGUAUUAUGUUACGCCGUUCGGAUCUGCACUUCCA | -1.17
UGGGGACAAGCUGACAGCAGCCAUGGCGAGCGGCAGUGGAGACAGCGUCACCCGUCGGAGCGUGGCAUCACAGUUUUUCACUCAAGAGGA | -2
UGGCCCUUCCCCUGGAGCCAUGCUGGGCCCUAGCCCGGGUCCCUCGCCGGGCUCCGCCCACAGCAUGAUGGGGCCCAGCCCAGGGCCGCC | -0.633
CUCAAGUCCUGUGCUACACAUCGUAUGUACCGAAUCGGAAGGAAGGGAAGGGGAAAGUAUUAUGUUACGCCGUUCGGAUCUGCACUUCCA | -1.08
UCAAGUCCUGUGCUACACAUCGUAUGUACCGAAUCGGCCCGGGCCCGGCCCGGGGAAAGUAUUAUGUUACGCCGUUCGGAUCUGCACUUC | -2.1

Study 3
Target: Histone acetyltransferase KAT6A, winged helix 1, GST fusion (KAT6A, Homo sapiens, UniProt Q92794, residues 1-85)
Technique: protein binding microarray
Molecule type: double-stranded DNA, one strand shown
Matrix: in vitro
Tested at: not given
Setting: 8-mer, flanks averaged, mean of 2 arrays, mostly near background
Baseline: not given
Direction: higher = stronger binding
Target sequence (chain): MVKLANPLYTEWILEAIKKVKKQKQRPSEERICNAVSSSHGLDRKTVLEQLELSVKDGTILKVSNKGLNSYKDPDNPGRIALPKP
Oligonucleotide | E-score
AACACAAT | -0.291
GTACGTGA | -0.00844
ACTCGACC | -0.0509
CACATTCA | -0.144
CACGCGAA | 0.0693
CGCGGGAG | 0.412
AACCTTCA | -0.259
ATTGACTA | -0.152
AGCTGCTC | -0.0844
GCAGTCTA | -0.0541
CCGAAACC | -0.0819
CGAAACCG | 0.221
CAAGAGCC | 0.0372
AAAACCAC | -0.0544
CGGCATAG | 0.288
ACCCCAGA | -0.22
GGAAATCA | -0.136
CCGAATTC | 0.103
ATCAGGAA | -0.184
CCAACGAC | -0.0255
CGGTTATA | 0.123
ATTGCAGA | -0.212

Study 4
Target: Prothrombin, mature alpha-thrombin (F2, Homo sapiens, UniProt P00734)
Technique: aptamer microarray, sandwich
Molecule type: DNA with 2'F-ANA
Matrix: in vitro
Tested at: 200 nM
Setting: whole 15-mer aptamer, many near background
Added: Cy3 exosite-II aptamer, 400 nM
Direction: higher = stronger binding
Oligonucleotide: GGTTGGTGTGGTTGG
Modification | mean fluorescence intensity [a.u.]
2'F-ANA at 1 2 4 6 7 8 10 11 12 13 14 15 | 156
2'F-ANA at 4 5 6 10 13 | 42.4
2'F-ANA at 1 4 5 6 7 9 11 13 | 50.2
2'F-ANA at 2 3 6 8 13 14 | 374
2'F-ANA at 3 8 12 15 | 1330
2'F-ANA at 1 2 3 4 5 7 8 9 13 | 52.9
2'F-ANA at 10 12 14 15 | 92.5
2'F-ANA at 1 4 5 7 9 12 13 | 67.8
2'F-ANA at 1 3 4 9 11 12 14 | 81
2'F-ANA at 1 4 5 10 | 44
2'F-ANA at 14 | 212
2'F-ANA at 3 6 7 8 11 13 | 912
2'F-ANA at 2 5 6 7 9 10 12 14 15 | 52.5
2'F-ANA at 2 3 4 5 8 9 13 | 66
2'F-ANA at 2 3 5 9 10 11 13 14 | 82.4
2'F-ANA at 2 5 6 10 11 12 15 | 54.7

Excerpt of the above (study 4):
Modification | mean fluorescence intensity [a.u.]
2'F-ANA at 10 12 14 15 | 92.5
2'F-ANA at 1 4 5 7 9 12 13 | 67.8
2'F-ANA at 1 3 4 9 11 12 14 | 81
2'F-ANA at 1 4 5 10 | 44
2'F-ANA at 14 | 212
2'F-ANA at 3 6 7 8 11 13 | 912
2'F-ANA at 2 5 6 7 9 10 12 14 15 | 52.5
2'F-ANA at 2 3 4 5 8 9 13 | 66
2'F-ANA at 2 3 5 9 10 11 13 14 | 82.4
